Results pooled from the literature.
Protocols differ between the studies behind these lines. ± gives the spread as reported.
Mc1r: Melanocyte-stimulating hormone receptor (Mc1r, Mus musculus, UniProt Q01727)
UniProt Q01727, sequence (whole entry, looked up): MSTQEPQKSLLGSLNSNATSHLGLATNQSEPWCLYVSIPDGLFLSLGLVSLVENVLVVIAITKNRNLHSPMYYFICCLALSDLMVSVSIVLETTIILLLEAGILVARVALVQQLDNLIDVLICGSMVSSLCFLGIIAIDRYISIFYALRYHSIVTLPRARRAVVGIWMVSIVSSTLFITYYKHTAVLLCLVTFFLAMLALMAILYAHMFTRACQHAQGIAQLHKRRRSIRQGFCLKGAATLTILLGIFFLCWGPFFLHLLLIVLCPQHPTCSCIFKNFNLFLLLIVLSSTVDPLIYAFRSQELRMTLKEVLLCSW
UniProt P20309, sequence (whole entry, unmodified, looked up): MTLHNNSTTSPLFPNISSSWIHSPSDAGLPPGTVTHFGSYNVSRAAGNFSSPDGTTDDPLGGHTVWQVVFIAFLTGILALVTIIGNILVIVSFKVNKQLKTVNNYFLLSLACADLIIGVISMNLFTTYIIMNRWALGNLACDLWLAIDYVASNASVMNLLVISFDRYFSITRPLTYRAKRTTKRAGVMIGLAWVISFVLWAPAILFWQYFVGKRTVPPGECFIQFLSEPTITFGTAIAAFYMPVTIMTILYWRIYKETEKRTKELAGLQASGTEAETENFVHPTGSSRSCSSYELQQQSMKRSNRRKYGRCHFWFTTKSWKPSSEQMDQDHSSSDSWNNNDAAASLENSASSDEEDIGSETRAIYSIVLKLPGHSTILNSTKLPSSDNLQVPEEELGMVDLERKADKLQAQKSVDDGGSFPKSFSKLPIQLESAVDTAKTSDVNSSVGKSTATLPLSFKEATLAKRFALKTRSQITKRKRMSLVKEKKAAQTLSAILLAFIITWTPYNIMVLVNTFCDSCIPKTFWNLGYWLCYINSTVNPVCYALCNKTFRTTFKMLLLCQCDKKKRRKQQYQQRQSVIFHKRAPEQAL
UniProt P11229, sequence (whole entry, looked up): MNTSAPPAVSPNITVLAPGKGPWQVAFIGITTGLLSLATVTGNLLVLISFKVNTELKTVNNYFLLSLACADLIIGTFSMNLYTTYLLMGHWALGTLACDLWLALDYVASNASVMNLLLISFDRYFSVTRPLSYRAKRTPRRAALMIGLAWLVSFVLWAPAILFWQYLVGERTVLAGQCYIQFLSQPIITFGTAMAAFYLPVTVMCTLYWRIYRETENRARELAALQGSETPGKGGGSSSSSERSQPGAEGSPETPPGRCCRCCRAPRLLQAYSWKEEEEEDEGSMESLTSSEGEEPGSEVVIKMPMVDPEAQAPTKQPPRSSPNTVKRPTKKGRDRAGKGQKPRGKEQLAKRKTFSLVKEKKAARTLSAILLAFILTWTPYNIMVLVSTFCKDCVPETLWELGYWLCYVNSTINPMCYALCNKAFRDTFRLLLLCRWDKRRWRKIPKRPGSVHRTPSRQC
UniProt P05804, sequence (whole entry, looked up): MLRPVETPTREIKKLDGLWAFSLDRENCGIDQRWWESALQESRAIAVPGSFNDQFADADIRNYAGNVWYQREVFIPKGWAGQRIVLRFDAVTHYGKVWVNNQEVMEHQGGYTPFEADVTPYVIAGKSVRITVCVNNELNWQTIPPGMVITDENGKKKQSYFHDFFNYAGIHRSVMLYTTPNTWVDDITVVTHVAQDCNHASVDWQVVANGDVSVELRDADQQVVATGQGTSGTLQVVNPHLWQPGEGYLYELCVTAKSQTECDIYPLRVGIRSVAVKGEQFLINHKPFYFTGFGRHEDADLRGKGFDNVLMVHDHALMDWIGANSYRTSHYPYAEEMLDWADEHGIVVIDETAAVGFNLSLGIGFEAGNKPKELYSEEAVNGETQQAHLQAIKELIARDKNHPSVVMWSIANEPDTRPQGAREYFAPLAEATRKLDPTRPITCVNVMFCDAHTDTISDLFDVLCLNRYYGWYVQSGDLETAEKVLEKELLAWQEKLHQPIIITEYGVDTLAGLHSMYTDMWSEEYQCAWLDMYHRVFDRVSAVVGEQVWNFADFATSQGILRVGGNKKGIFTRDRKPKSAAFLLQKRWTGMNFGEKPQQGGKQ

Compound | target | test | system | conditions | EC50 [nM]
CC(=O)N[C@@H](CCCNC(=N)N)C(=O)N[C@@H](CCCNC(=N)N)C(=O)N[C@H](Cc1ccc(I)cc1)C(=O)N[C@@H](C(N)=O)[C@@H](c1ccccc1)c1c[nH]c2ccccc12 | Mc1r | cAMP, agonist, AlphaScreen | – | – | 210
C[N+](C)(CC#CCOC1=NOCC1)CCCCCCNC(=O)CCOCCOCCOCCOCCNC(=O)CCCC(=O)NCCCCC(C(=O)O)N(CC(=O)O)CC(=O)O (centres unmarked) | CHRM1 (Homo sapiens, UniProt P11229) | calcium response, agonist | primary rat cortical astrocytes | – | 170
CC(=O)N[C@@H](CCCNC(=N)N)C(=O)N[C@@H](CCCNC(=N)N)C(=O)N[C@H](C(=O)N1Cc2ccccc2C[C@H]1C(N)=O)[C@H](c1ccccc1)c1c[nH]c2ccccc12 | Mc1r | cAMP, agonist, AlphaScreen | – | – | > 100000
CC(C)C[C@H](NC(=O)[C@H](CO)NC(=O)[C@H](Cc1c[nH]c2ccccc12)NC(=O)[C@H](Cc1c[nH]c2ccccc12)NC(=O)[C@H](CC(=O)O)NC(=O)[C@H](CC(C)C)NC(=O)CN)C(=O)O | Transcriptional regulator ComR (Streptococcus mutans serotype c, UniProt Q8DWI6) | – | Streptococcus mutans | – | 440
CN(C)c1nc(N2CCNCC2)c2sc3nc(-c4ccccc4)ccc3c2n1 | Beta-glucuronidase (uidA, Escherichia coli, UniProt P05804) | enzyme activity, inhibitor, in-cell | K12 MG1655 | 24 h | 7
CC[C@H](C)[C@@H]1NC(=O)[C@H](Cc2ccccc2)NC(=O)[C@H](CC(N)=O)NC(=O)[C@@H](NC(=O)[C@@H](NC(=O)[C@H](CO)NC(=O)[C@@H](N)Cc2ccc(O)cc2)[C@@H](C)O)CSC(=O)[C@H](CCSC)NC1=O | agrC (Staphylococcus aureus, UniProt O07911) | – | – | – | 40.4
CCCC[C@H](NC=O)C(=O)N[C@@H](CCCC)C(=O)N[C@@H](Cc1c[nH]c2ccccc12)C(=O)N[C@@H](CCC(=O)O)C(=O)N[C@@H](CC(=O)O)C(=O)N[C@@H](Cc1c[nH]c2ccccc12)C(=O)N[C@H](C(=O)NCC(=O)N[C@@H](Cc1c[nH]c2ccccc12)C(=O)N[C@H](C(=O)O)[C@@H](C)CC)C(C)C | FPR1 (Homo sapiens, UniProt P21462) | receptor surface downregulation, agonist | CHO cells | 1 h, 37 °C | 60 ± 8
[2H]C([2H])(C)N1CCN(C2=Nc3cc(Cl)ccc3Nc3ccccc32)CC1 | CHRM3 (Homo sapiens, UniProt P20309, A239G/Y149C) | calcium signal, agonist | – | – | 9.6

Some of these lines once more:
Compound | target | test | system | conditions | EC50 [nM]
[2H]C([2H])(C)N1CCN(C2=Nc3cc(Cl)ccc3Nc3ccccc32)CC1 | CHRM3 (Homo sapiens, UniProt P20309, A239G/Y149C) | calcium signal, agonist | – | – | 9.6
